Published values gathered from unrelated publications.
Lines come from different studies, so protocols differ. Several values in a cell are separate wells, animals, samples, runs or records. Numbers after ± are the reported error.
uncharacterized protein: uncharacterized protein (Bos taurus, UniProt E1BM68)
Peroxisome proliferator-activated receptor delta: Peroxisome proliferator-activated receptor delta (Rattus norvegicus, UniProt Q62879)
USP3 ZnF-UBD domain: Ubiquitin carboxyl-terminal hydrolase 3, ZnF-UBD domain (USP3, Homo sapiens, UniProt Q9Y6I4)
Sequence of UniProt Q9Y6I4 (whole entry, looked up): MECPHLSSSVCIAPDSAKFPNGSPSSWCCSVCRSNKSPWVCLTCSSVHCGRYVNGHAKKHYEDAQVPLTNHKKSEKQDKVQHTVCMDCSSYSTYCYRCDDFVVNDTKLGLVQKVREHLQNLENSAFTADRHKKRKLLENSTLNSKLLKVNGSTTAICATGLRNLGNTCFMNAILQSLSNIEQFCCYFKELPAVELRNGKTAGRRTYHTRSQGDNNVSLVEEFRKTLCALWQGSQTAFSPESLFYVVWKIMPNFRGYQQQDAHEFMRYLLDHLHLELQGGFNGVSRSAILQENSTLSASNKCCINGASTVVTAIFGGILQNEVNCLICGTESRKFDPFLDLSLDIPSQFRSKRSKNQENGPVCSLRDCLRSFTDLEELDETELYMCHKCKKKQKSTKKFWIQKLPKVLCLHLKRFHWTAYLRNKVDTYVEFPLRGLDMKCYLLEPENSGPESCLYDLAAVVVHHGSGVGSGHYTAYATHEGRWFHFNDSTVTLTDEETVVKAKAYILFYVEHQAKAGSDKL
NPY1R: Neuropeptide Y receptor type 1 (NPY1R, Homo sapiens, UniProt P25929)
Sequence of UniProt Q8N884 (whole entry, looked up): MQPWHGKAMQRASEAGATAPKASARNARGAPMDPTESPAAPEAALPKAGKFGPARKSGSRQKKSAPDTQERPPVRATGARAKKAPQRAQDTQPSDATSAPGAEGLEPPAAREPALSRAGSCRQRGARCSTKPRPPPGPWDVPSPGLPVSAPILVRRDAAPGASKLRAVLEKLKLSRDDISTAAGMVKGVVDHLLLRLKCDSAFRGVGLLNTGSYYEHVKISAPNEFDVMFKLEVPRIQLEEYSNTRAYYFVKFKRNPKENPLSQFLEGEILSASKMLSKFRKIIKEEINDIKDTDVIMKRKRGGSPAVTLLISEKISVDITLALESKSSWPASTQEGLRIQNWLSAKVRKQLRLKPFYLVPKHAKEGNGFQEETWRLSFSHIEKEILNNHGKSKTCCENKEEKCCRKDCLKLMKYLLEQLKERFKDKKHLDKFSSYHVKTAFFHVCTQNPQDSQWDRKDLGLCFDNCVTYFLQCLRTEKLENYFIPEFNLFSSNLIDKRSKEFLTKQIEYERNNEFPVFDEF
Sequence of UniProt P25929 (whole entry, looked up): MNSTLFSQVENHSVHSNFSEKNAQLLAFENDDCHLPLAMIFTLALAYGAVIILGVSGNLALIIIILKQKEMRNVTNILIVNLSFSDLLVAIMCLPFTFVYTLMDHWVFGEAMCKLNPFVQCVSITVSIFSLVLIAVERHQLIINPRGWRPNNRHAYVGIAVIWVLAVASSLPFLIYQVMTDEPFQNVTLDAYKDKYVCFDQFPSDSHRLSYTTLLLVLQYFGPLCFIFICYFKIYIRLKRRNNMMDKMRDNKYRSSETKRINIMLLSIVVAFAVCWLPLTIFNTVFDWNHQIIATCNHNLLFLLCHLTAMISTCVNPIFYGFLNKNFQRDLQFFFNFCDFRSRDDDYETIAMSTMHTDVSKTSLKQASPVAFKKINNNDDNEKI
Sequence of UniProt Q9BQB4 (whole entry, looked up): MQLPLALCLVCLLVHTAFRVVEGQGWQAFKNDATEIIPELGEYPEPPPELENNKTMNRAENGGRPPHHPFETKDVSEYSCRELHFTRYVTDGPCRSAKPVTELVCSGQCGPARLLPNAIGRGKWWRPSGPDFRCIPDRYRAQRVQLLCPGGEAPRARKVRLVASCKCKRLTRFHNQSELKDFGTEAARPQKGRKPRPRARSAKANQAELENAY
Sequence of UniProt Q13258 (whole entry, looked up): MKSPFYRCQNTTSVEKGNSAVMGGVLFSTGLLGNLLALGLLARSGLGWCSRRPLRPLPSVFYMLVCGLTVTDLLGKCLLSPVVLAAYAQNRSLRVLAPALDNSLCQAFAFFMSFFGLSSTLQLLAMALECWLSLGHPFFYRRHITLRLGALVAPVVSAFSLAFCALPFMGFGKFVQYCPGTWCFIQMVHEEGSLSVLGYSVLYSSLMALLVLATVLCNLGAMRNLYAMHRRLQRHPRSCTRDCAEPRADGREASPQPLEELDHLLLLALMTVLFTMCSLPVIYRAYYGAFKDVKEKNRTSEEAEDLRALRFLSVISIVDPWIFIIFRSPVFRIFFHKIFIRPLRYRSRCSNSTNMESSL
Sequence of UniProt P48547 (whole entry, looked up): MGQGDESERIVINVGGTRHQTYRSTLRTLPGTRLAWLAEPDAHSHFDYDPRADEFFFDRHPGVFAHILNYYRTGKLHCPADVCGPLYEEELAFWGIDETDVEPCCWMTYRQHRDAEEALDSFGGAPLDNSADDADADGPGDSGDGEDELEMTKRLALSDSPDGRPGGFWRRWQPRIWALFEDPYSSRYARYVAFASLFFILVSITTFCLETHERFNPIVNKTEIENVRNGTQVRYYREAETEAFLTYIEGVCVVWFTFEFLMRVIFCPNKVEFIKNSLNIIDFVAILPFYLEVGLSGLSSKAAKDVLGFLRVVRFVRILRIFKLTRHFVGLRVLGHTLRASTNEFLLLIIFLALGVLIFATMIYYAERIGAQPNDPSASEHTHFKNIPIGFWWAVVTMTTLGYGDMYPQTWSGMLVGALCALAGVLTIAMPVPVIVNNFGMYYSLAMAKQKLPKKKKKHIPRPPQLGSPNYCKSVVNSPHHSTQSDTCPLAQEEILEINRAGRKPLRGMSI
Sequence of UniProt Q08499 (whole entry, looked up): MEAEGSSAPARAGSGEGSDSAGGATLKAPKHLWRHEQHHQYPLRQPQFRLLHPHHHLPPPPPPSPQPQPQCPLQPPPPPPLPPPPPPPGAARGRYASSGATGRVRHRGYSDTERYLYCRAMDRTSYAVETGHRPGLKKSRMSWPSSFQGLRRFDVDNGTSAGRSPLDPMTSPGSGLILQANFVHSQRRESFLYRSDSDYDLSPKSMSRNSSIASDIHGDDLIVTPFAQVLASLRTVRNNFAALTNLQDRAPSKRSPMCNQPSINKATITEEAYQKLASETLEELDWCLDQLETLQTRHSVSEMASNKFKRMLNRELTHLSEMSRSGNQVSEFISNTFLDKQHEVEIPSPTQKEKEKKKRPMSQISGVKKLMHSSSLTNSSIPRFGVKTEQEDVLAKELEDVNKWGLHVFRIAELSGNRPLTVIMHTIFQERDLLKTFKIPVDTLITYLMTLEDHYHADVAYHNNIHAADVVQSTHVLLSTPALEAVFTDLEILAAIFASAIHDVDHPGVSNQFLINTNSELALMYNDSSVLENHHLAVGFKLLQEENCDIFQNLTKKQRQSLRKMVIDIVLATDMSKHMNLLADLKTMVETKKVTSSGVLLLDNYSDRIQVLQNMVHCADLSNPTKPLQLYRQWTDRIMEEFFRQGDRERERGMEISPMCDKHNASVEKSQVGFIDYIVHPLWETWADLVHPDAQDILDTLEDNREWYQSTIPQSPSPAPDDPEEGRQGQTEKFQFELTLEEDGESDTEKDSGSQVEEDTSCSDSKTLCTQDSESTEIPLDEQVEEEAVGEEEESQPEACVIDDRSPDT
Sequence of UniProt P51582 (whole entry, looked up): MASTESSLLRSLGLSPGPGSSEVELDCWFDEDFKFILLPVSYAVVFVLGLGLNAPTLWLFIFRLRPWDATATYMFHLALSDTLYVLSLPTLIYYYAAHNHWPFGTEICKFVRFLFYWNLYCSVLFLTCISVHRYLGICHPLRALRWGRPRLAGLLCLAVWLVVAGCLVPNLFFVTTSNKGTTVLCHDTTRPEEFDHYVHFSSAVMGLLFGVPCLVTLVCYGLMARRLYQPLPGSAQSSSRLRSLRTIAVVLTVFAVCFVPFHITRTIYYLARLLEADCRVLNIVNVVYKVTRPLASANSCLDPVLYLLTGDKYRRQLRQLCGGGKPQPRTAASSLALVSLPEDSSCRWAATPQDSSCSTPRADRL
Sequence of UniProt P30191 (whole entry, looked up): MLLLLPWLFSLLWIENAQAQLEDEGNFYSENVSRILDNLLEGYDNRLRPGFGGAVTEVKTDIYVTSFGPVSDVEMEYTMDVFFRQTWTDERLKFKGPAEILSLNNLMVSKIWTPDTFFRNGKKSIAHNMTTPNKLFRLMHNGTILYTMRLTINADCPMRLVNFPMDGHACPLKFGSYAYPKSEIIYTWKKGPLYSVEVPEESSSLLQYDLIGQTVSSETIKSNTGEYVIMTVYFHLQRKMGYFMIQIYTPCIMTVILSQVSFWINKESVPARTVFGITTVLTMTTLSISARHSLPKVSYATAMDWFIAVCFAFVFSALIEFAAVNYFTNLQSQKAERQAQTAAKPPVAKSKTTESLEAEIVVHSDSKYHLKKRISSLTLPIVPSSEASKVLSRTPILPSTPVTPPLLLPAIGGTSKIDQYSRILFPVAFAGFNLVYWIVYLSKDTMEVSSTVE
Sequence of UniProt P23204 (whole entry, looked up): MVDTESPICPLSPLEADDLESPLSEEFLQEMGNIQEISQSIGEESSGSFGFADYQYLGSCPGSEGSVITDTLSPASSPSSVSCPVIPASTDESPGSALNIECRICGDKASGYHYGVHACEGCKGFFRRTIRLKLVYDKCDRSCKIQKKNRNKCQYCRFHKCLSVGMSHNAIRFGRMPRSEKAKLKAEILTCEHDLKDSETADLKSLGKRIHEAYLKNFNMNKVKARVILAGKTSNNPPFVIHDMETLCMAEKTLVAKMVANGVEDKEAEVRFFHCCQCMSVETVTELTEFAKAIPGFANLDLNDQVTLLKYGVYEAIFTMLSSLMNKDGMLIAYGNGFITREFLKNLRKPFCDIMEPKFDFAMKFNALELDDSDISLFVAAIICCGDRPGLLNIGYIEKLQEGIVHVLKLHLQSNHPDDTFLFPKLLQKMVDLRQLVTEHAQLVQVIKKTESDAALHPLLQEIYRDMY

Compound	tested on	assay	test system	conditions	measurement	result
CCc1nccnc1OC	uncharacterized protein	cAMP level, agonist, cAMP luminescence	HEK293 cells	–	EC50	292 ± 146 µM
Cc1nc(-c2ccc(C(F)(F)F)c(F)c2)nc(Nc2ccc(CC(=O)O)cc2)c1C	PDE4D (Homo sapiens, UniProt Q08499)	reporter gene, dual luciferase	–	–	EC50	78.3 ± 4.49 µM
O=C(NCCN1CCCC1=O)c1ccc(C2CCCCC2)cc1	–	hepatocyte stability	cryopreserved rat hepatocytes	1 µM	hepatic clearance	46 mL/min/kg
Cc1cnccn1	uncharacterized protein	cAMP level, agonist, cAMP luminescence	HEK293 cells	–	EC50	> 1500 µM
CCO[C@H](COc1ccc(C(F)(F)F)cc1)CSc1ccc(OCC(=O)O)c(C)c1	Peroxisome proliferator-activated receptor delta	reporter gene, agonist, luciferase reporter	rat	serum-free	EC50	0.9 µM
O=C(O)CCn1sc2ccccc2c1=O	USP3 ZnF-UBD domain	–	–	–	Kd	> 1000 µM
C=CCc1ccc(OC)c(OC)c1	uncharacterized protein	cAMP level, agonist, cAMP luminescence	HEK293 cells	–	EC50	32.8 ± 2.77 µM
O=C(Nc1ccn(Cc2ccc(O)cc2C(F)(F)F)n1)c1c(F)cccc1F	KCNC1 (Homo sapiens, UniProt P48547)	ion channel activity, agonist	cells overexpressing KCNC1	human receptor	EC50	> 10 µM
CC[C@H](C)[C@H](NC(=O)[C@H](Cc1ccccc1)NC(=O)[C@H](CCC(=O)O)NC(=O)[C@H](CCCNC(=N)N)NC(=O)[C@H](C)NC(=O)[C@H](C)NC(=O)[C@H](CCC(N)=O)NC(=O)[C@H](CCC(=O)O)NC(=O)[C@H](CCC(=O)O)NC(=O)[C@H](CC(C)C)NC(=O)[C@H](Cc1ccc(O)cc1)NC(=O)[C@H](CO)NC(=O)[C@H](CO)NC(=O)[C@@H](NC(=O)[C@H](CC(=O)O)NC(=O)[C@H](CO)NC(=O)[C@@H](NC(=O)[C@H](Cc1ccccc1)NC(=O)[C@@H](NC(=O)CNC(=O)[C@H](CCC(=O)O)NC(=O)[C@H](C)NC(=O)CCc1c[nH]cn1)[C@@H](C)O)[C@@H](C)O)C(C)C)C(=O)N[C@@H](C)C(=O)N[C@@H](Cc1c[nH]c2ccccc12)C(=O)N[C@@H](CC(C)C)C(=O)N[C@H](C(=O)N[C@@H](CCCNC(=N)N)C(=O)NCC(=O)N[C@@H](CCCNC(=N)N)C(=O)N[C@@H](CCCCNC(=O)COCCOCCNC(=O)COCCOCCNC(=O)CC[C@H](NC(=O)CCCCCCCCCCCCCCCCC(=O)O)C(=O)O)C(=O)O)C(C)C	GLP1R (Homo sapiens, UniProt P43220)	cAMP reporter gene, agonist, CRE luciferase	BHK	without Zr, 0% HSA	EC50	1.9e-06 µM
CCCCC[C@H](O)/C=C/[C@H]1[C@H](O)CC(=O)[C@@H]1C/C=C\CCCC(=O)O	PTGER1 (Homo sapiens, UniProt P34995, F334A/P39A)	IP1 accumulation, agonist	AD293	–	EC50	0.0652 µM
CCc1nccnc1C(C)=O	uncharacterized protein	cAMP level, agonist, cAMP luminescence	HEK293 cells	–	EC50	473 ± 41.6 µM
CCOC(=O)c1cnc2c(c(C)nn2-c2ccc(Cl)cc2)c1Cl	NPY1R	cAMP accumulation, agonist	SK-N-MC	–	EC50	16 µM
COc1cccc(-n2nc3c4cc(Cl)ccc4[nH]cc-3c2=O)c1	Gamma-aminobutyric acid receptor subunit alpha-6/beta-3, with delta subunit (Gabra6/Gabrb3, Rattus norvegicus, UniProt P30191+P63079)	GABA-evoked current, two-electrode voltage clamp	–	α6β3δ receptor, added: GABA EC3-10	EC50	7.7 µM
CSc1ccc(C(=O)/C=C/c2cc(C)c(OC(C)(C)C(=O)O)c(C)c2)cc1	Peroxisome proliferator-activated receptor delta	reporter gene, agonist, luciferase reporter	rat	serum-free	EC50	1.4 µM
CCCCC[C@H](O)/C=C/[C@H]1C(=O)C[C@H](O)[C@@H]1C/C=C\CCCC(=O)O	PTGDR (Homo sapiens, UniProt Q13258)	agonist	–	–	EC50	0.0501 µM
CN(CCC#N)C(=O)c1ccc([C@H]2[C@@H](F)[C@@H](F)C[C@@H](F)[C@H]2F)cc1	–	hepatocyte stability	cryopreserved rat hepatocytes	1 µM	hepatic clearance	20 mL/min/kg
Cc1nccnc1C	uncharacterized protein	cAMP level, agonist, cAMP luminescence	HEK293 cells	–	EC50	> 1500 µM
CCOC(=O)c1cnn2c(C)c(Cc3ccc(Cl)nc3)c(C)nc12	NPY1R	cAMP accumulation, agonist	SK-N-MC	–	EC50	> 100 µM
CCc1nccnc1CC	uncharacterized protein	cAMP level, agonist, cAMP luminescence	HEK293 cells	–	EC50	125 ± 33.9 µM
Cc1nn(-c2nc3ccccc3[nH]2)c(O)c1C(c1ccccn1)c1c(C)nn(-c2nc3ccccc3[nH]2)c1O	Cyclic GMP-AMP synthase, catalytic domain; with DNA (CGAS, Homo sapiens, UniProt Q8N884)	liquid-liquid phase separation, inhibitor	–	–	EC50	6.72 µM and 6.74 µM
O=c1ccn([C@@H]2O[C@H](COP(=O)(O)OP(=O)(O)OP(=O)(O)O)[C@@H](O)[C@H]2O)c(=O)[nH]1	P2Y purinoceptor 4 (P2RY4, Homo sapiens, UniProt P51582)	agonist, cell-based	–	–	EC50	0.396 µM
CO[C@H]1O[C@H](COS(=O)(=O)O)[C@@H](O[C@@H]2O[C@@H](C(=O)O)[C@@H](O[C@H]3O[C@H](COS(=O)(=O)O)[C@@H](O[C@@H]4O[C@H](C(=O)O)[C@@H](O[C@H]5O[C@H](COS(=O)(=O)O)[C@@H](O)[C@H](O)[C@H]5NS(=O)(=O)O)[C@H](O)[C@H]4O)[C@H](OS(=O)(=O)O)[C@H]3NS(=O)(=O)O)[C@H](O)[C@H]2OS(=O)(=O)O)[C@H](O)[C@H]1NS(=O)(=O)O	Sclerostin (SOST, Homo sapiens, UniProt Q9BQB4)	fluorescence polarization competition	–	added: TAMRA-labelled probe	EC50	159 ± 26.1 µM
O=C(O)CSc1nnc(NC(=O)COc2ccccc2)s1	USP3 ZnF-UBD domain	–	–	–	Kd	219 µM
O=C(O)CCCc1cc2cc(Cl)ccc2n1S(=O)(=O)c1ccc2ncsc2c1	Ppara (Mus musculus, UniProt P23204)	receptor activation, agonist, luciferase reporter	–	serum-free, species mouse	EC50	2 µM

Excerpt of the above:
Compound	tested on	assay	test system	conditions	measurement	result
O=C(O)CCn1sc2ccccc2c1=O	USP3 ZnF-UBD domain	–	–	–	Kd	> 1000 µM
C=CCc1ccc(OC)c(OC)c1	uncharacterized protein	cAMP level, agonist, cAMP luminescence	HEK293 cells	–	EC50	32.8 ± 2.77 µM
O=C(Nc1ccn(Cc2ccc(O)cc2C(F)(F)F)n1)c1c(F)cccc1F	KCNC1 (Homo sapiens, UniProt P48547)	ion channel activity, agonist	cells overexpressing KCNC1	human receptor	EC50	> 10 µM
